Literature values, collected from citations in different studies.
± gives the spread as reported.
Slc6a3: Sodium-dependent dopamine transporter (Slc6a3, Rattus norvegicus, UniProt P23977)
UniProt P23977, sequence (whole entry, looked up): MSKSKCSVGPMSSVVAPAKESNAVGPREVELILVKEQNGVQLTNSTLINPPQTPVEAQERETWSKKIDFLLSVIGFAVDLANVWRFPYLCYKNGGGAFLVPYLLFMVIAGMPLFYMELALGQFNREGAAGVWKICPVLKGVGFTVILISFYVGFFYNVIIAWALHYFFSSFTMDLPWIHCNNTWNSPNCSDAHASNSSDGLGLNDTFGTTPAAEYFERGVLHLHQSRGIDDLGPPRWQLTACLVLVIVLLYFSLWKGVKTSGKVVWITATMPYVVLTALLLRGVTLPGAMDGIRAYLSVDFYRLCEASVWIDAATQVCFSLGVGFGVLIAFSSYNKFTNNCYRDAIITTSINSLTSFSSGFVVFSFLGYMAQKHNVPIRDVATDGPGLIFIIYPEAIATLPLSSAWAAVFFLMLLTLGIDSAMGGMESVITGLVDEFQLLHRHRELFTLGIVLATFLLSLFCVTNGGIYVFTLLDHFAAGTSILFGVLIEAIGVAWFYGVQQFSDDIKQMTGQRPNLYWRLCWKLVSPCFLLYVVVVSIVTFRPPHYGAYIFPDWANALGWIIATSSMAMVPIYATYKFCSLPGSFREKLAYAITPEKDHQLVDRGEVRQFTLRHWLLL
SLC6A3: Sodium-dependent dopamine transporter (SLC6A3, Homo sapiens, UniProt Q01959)
UniProt Q01959, sequence (whole entry, looked up): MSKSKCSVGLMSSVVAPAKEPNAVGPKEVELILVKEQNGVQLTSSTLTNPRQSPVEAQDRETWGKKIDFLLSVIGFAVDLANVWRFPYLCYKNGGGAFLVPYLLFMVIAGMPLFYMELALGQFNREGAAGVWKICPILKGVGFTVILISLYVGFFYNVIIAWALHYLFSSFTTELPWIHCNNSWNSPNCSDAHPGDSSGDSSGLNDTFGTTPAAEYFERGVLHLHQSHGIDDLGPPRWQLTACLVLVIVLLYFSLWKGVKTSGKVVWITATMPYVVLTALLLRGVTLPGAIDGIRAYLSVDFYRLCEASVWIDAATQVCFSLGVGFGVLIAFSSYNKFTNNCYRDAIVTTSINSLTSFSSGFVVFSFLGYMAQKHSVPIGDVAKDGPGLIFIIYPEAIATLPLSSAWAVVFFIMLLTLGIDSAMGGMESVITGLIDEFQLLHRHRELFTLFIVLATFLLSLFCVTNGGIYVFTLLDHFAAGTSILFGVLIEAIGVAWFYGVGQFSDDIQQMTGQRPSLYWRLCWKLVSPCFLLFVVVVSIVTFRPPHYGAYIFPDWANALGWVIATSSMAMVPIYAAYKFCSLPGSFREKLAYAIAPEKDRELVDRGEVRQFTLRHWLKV
Tmem97: Sigma intracellular receptor 2 (Tmem97, Rattus norvegicus, UniProt Q5U3Y7)
UniProt Q5U3Y7, sequence (whole entry, looked up): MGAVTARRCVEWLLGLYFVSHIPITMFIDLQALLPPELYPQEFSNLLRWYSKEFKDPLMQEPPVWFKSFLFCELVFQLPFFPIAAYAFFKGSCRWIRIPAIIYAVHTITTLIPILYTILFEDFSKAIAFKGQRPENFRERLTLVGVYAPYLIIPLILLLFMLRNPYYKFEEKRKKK
UniProt P14867, sequence (whole entry, looked up): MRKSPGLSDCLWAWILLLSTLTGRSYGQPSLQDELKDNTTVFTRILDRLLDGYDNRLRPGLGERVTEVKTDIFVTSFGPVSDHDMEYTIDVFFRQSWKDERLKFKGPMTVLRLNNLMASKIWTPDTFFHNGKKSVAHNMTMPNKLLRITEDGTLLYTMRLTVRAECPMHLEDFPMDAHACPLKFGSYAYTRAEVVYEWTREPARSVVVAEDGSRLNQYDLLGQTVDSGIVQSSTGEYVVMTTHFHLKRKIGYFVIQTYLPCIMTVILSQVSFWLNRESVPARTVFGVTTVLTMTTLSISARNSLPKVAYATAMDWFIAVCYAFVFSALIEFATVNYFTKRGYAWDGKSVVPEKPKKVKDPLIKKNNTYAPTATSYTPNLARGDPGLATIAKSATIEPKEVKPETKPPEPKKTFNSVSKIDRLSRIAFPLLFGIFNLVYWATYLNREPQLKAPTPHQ
UniProt P18507, sequence (whole entry, looked up): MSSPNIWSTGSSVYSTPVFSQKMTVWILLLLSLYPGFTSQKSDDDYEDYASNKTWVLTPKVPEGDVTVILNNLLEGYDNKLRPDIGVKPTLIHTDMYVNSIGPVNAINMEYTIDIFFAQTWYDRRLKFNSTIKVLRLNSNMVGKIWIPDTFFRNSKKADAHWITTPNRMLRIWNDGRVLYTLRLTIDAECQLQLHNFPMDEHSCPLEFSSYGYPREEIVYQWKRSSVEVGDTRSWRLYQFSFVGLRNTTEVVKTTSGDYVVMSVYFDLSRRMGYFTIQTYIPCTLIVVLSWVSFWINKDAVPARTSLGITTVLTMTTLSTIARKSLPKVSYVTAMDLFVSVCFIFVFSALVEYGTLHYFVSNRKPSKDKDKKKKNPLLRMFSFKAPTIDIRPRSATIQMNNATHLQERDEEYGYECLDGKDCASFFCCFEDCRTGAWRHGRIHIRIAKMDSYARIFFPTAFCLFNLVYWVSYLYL
UniProt P28472, sequence (whole entry, looked up): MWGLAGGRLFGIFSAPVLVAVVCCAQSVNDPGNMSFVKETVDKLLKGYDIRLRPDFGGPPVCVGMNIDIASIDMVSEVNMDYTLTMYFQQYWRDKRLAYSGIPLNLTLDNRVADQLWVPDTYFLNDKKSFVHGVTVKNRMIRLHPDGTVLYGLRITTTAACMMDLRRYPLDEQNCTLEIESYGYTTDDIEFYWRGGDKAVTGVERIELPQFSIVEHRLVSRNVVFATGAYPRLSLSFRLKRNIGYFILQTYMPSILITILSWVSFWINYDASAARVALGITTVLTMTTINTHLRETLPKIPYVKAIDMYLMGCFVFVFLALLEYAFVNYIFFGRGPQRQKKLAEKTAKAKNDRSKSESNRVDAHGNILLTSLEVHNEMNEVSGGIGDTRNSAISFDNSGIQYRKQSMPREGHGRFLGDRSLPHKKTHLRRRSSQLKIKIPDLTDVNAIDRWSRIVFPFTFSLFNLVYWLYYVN
UniProt P47746, sequence (whole entry, looked up): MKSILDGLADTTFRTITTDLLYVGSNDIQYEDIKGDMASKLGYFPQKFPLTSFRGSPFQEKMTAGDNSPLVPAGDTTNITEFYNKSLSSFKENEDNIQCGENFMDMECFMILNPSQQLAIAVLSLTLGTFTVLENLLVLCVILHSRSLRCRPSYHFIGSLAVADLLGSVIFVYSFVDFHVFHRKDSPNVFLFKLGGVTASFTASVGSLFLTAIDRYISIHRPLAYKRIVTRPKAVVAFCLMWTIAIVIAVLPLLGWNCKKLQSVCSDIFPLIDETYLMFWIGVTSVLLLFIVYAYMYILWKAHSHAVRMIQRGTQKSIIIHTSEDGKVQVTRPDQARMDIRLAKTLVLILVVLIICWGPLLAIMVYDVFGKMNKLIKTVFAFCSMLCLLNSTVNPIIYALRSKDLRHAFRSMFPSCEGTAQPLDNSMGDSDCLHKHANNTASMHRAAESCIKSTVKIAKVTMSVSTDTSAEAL
UniProt Q05940, sequence (whole entry, looked up): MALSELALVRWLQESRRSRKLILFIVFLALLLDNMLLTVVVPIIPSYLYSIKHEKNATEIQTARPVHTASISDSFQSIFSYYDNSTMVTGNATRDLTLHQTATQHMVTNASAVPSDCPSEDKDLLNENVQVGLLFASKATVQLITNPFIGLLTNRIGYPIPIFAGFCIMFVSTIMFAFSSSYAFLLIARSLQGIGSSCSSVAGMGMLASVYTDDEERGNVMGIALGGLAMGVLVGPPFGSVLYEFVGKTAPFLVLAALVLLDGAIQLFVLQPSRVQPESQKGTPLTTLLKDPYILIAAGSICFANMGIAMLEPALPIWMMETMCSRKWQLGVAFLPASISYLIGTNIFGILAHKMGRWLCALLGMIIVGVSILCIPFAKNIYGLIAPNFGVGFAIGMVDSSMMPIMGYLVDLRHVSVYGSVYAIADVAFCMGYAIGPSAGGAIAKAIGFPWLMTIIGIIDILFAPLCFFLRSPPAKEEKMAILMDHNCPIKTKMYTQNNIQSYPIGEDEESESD

Compound	target	test	system	setting	quantity	result
CC(NC1CC1)C(=O)c1ccc(Cl)c(Cl)c1 (centres unmarked)	Slc6a3	dopamine uptake, inhibitor	rat brain synaptosomes	–	IC50	425 ± 22 nM
CNC(C)C(=O)c1ccc2c(c1)OCO2 (centres unmarked)	Slc6a3	–	–	–	IC50	1230 ± 133 nM
CCCC(NC)C(=O)c1ccc2c(c1)OCO2 (centres unmarked)	SLC6A3	[3H]dopamine uptake, inhibitor	HEK293 expressing SLC6A3	–	IC50	167 ± 37 nM
CC[C@H]1C[C@H]2C[C@H]3c4[nH]c5ccc(O)cc5c4CCN(C2)[C@@H]13	SLC18A2 (Homo sapiens, UniProt Q05940)	radioligand binding	human striatal homogenate	–	IC50	29500 nM
CCCCCn1cc(C(=O)c2cccc3ccccc23)c2ccccc21	Cnr1 (Mus musculus, UniProt P47746)	EPSC suppression	autaptic hippocampal neurons	–	IC50	14.9 nM
CNC(C)C(=O)c1ccc(C)cc1 (centres unmarked)	Transporter (Slc6a2, Rattus norvegicus, UniProt Q63380)	–	–	–	IC50	487 ± 66 nM
CNC1(c2ccccc2Cl)CCCCC1=O (racemic)	α7 nicotinic acetylcholine receptor	non-competitive inhibitor	–	–	IC50	~20000 nM
N#Cc1ccc(-c2[nH]c(=O)c(O)cc2-c2ccc(F)cc2)cc1	Polymerase acidic protein, endonuclease domain (PA, Influenza A virus, UniProt C3W5S0)	inhibitor	–	–	IC50	54 nM
C=CCN(CC=C)CCc1c[nH]c2ccc(F)cc12	Tmem97	–	–	–	Ki	303 nM
CN1C/C(=C\c2ccc(Cl)cc2Cl)C/C(=C/c2ccc(Cl)cc2Cl)C1	alpha7 nicotinic acetylcholine receptor	binding	–	together with: [3H]methyllycaconitine	Ki	> 100000 nM
CCOC(=O)c1cncn1C(C)c1cccc2ccccc12 (centres unmarked)	GABA-A receptor; alpha-1/beta-3/gamma-2 (Homo sapiens, UniProt P14867+P18507+P28472)	photoaffinity labelling	–	together with: GABA	IC50	33000 nM
CCCC(C(=O)c1ccc2c(c1)OCO2)N1CCCC1 (centres unmarked)	Slc6a3	uptake	rat brain synaptosomes	–	IC50	4.1 ± 0.5 nM
C=CCN(CC=C)CCc1c[nH]c2ccccc12	Tmem97	binding, radioligand binding	rat PC-12	together with: [3H]DTG	Ki	356 nM
CCCC(NC)C(=O)c1ccccc1 (centres unmarked)	SLC6A3	[3H]dopamine uptake, inhibitor	HEK293 expressing SLC6A3	–	IC50	176 ± 8.9 nM

For quick reference, copied from above:
Compound	target	test	system	setting	quantity	result
CN1C/C(=C\c2ccc(Cl)cc2Cl)C/C(=C/c2ccc(Cl)cc2Cl)C1	alpha7 nicotinic acetylcholine receptor	binding	–	together with: [3H]methyllycaconitine	Ki	> 100000 nM
CC[C@H]1C[C@H]2C[C@H]3c4[nH]c5ccc(O)cc5c4CCN(C2)[C@@H]13	SLC18A2 (Homo sapiens, UniProt Q05940)	radioligand binding	human striatal homogenate	–	IC50	29500 nM
